Experimental data of several laboratories.
Each line is one published result; not all experiments were run side by side.
Target: Mitogen-activated protein kinase kinase kinase 3 (MAP3K3, Homo sapiens, UniProt Q99759)
Residues used in one study (Q99759 1-626): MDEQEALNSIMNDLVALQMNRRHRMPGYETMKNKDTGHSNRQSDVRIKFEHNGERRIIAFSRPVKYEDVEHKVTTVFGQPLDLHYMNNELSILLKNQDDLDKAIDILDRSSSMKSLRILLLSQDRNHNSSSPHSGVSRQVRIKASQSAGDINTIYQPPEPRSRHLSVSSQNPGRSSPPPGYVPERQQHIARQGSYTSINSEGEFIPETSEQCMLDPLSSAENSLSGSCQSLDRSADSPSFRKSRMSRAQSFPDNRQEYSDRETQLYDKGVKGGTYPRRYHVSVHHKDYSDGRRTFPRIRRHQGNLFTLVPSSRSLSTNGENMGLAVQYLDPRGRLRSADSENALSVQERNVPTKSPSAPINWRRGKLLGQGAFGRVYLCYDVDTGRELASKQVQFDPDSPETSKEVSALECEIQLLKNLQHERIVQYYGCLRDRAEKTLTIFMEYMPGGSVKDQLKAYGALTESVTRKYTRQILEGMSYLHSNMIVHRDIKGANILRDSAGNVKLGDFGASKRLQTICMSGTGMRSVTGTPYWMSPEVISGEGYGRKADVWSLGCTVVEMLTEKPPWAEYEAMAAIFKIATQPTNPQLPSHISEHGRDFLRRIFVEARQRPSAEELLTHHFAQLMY

SMILES	assay	test system	conditions	scale	measurement	value
CN1CCN(Cc2ccc(-c3ccc(CO[C@H]4CCC[C@@H]4NC(=O)c4cc(-c5cnn(C)c5)cnc4N)cc3)cc2)CC1	enzyme activity, inhibitor		0.1 µM		inhibition	-10%
Cc1cc(NC(=O)[C@H](O)c2cc(F)cc(F)c2)ccc1-c1cnc(N)c(C(=O)NC(C)C)c1	binding, competition with immobilised ligand		10 µM		remaining binding	30%
CCn1cc(C(=O)O)c(=O)c2c(N)c(F)c(NC3CCCCC3)cc21	kinase activity		0.1 µM, together with: ATP at Km		inhibition	5.7%
CC(C)=CC1OC(C)(C)C2C=C3C(=O)C(Cl)=CC(O)C3C3C(O)C4OC4C(=O)C132 (stereo not drawn)	cell-free assay, competition with immobilised ligand		10 µM		remaining binding	73%
NC(=O)C[C@H]1CCc2sc3ncnc(O[C@H]4CC[C@H](N5CCOCC5)CC4)c3c21	enzyme activity, inhibitor		10 µM		inhibition	-4%
COc1cc(Nc2nccc(-c3cnn4nc(OC)ccc34)n2)cc(C(F)(F)F)c1	binding, competition with immobilised ligand		1 µM		remaining binding	82%
C=CC(=O)N1CCc2ccc(-n3c(=O)ccc4cnc5ccc(-c6cnn(C)c6)cc5c43)cc21	KINOMEscan		1 µM	relative to: DMSO control	remaining binding	98%
C=CC(=O)Nc1cc(-c2nn(C3CCN(CCNC(=O)[C@H](C)CCC45CC6CC(CC(C6)C4)C5)CC3)c3ncnc(N)c23)ccc1Oc1ccccc1	inhibitor, KiNativ profiling	biochemical	2 µM		inhibition	15.4%
C=CC(=O)N1CCCC(n2c(=O)c3ncccc3n(Cc3ccc(Oc4ccccc4)cc3)c2=O)C1 (stereo not drawn)	cell-free assay, competition with immobilised ligand		1 µM		remaining binding	91%
Cc1ccc(-c2c(/C=C(\C#N)C(=O)NC(C)C)n(CCCO)c3ncnc(N)c23)cc1	cell-free assay, competition with immobilised ligand		1 µM		remaining binding	99%
Nc1ncc(-c2cc(-c3cnn(CC(F)(F)F)c3)ncc2F)nc1C(=O)NC1CNCC(F)C1 (stereo not drawn)	enzyme activity		1 µM	relative to: DMSO control	remaining activity	96.8%
CNC1C[S+]2CC[S+]3CC[S+](C1)[Ru-4]321([N]=C=S)[n]2c3ccc(OC)cc3c3c4c(c5cc(F)c[n+]1c5c32)C(=O)NC4=O (stereo not drawn)	KinomeScan		0.1 µM	relative to: untreated	remaining binding	96%

Excerpt of the above:
SMILES	assay	test system	conditions	scale	measurement	value
Cc1ccc(-c2c(/C=C(\C#N)C(=O)NC(C)C)n(CCCO)c3ncnc(N)c23)cc1	cell-free assay, competition with immobilised ligand		1 µM		remaining binding	99%
CN1CCN(Cc2ccc(-c3ccc(CO[C@H]4CCC[C@@H]4NC(=O)c4cc(-c5cnn(C)c5)cnc4N)cc3)cc2)CC1	enzyme activity, inhibitor		0.1 µM		inhibition	-10%
